Measurements pooled from the literature.
Each numbered part is a random draw from the data of one study; scales do not carry over between parts.
Chain of UniProt Q9BYP7 (whole entry, looked up): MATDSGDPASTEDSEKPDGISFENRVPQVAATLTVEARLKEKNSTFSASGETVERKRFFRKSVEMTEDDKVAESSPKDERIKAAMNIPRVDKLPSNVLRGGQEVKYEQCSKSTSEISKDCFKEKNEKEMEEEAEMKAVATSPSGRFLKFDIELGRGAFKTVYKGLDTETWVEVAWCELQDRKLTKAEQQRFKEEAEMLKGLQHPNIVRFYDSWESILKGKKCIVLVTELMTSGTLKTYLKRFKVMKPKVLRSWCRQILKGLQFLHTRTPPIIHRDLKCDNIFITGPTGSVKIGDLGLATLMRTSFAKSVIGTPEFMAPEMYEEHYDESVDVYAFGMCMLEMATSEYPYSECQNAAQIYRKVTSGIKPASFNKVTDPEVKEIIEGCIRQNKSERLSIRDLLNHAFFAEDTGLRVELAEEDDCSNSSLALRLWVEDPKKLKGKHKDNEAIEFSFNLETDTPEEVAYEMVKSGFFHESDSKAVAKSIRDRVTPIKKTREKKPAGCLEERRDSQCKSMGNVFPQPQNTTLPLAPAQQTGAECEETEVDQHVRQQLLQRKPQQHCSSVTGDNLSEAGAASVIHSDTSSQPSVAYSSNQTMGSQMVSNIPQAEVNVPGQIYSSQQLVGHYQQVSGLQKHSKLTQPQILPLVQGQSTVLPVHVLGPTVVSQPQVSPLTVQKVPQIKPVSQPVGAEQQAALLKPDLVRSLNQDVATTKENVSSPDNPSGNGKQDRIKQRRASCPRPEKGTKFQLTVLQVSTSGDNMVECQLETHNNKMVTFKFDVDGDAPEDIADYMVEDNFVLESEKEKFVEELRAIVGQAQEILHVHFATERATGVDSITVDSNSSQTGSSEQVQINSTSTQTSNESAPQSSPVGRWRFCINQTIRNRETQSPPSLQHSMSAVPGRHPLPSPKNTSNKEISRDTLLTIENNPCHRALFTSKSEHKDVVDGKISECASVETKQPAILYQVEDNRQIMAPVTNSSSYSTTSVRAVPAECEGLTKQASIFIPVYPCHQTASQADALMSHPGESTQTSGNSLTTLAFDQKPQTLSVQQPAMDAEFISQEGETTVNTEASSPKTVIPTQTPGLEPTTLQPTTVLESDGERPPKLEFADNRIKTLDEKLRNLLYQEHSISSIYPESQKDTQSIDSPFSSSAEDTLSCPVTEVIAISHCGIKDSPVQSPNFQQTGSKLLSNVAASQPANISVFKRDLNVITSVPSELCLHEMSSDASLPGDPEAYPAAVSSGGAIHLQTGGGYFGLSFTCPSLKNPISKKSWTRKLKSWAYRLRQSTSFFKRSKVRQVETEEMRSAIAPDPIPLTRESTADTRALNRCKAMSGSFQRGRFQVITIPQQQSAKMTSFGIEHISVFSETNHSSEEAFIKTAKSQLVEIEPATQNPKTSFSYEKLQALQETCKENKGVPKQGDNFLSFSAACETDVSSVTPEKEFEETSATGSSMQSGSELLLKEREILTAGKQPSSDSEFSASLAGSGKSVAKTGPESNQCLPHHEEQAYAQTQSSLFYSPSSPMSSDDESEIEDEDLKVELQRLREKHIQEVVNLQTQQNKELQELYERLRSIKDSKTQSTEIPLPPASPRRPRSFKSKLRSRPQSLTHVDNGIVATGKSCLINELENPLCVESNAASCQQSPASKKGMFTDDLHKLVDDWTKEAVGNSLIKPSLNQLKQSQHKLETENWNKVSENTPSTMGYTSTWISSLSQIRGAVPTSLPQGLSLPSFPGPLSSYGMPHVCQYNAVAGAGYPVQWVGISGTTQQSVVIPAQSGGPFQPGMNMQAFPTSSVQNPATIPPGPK

Set 1
Target: RING finger protein unkempt homolog, zinc fingers 1-6, GST-SBP tag (UNK, Homo sapiens, UniProt Q9C0B0, residues 30-357)
Chain of UniProt Q9C0B0 (30-357, looked up): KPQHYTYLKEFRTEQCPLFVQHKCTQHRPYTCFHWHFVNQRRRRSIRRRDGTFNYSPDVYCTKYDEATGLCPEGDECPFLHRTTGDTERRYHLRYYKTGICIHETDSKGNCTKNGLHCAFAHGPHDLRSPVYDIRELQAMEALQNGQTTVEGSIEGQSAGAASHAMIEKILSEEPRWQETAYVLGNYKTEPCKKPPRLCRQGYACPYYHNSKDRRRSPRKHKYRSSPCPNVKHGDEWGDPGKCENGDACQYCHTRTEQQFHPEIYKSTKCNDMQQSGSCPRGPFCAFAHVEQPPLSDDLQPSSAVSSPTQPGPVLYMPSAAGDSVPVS
Method: RNA Bind-n-Seq
Molecule type: RNA
Matrix: in vitro
Concentration: not given
Setting: RNA with constant flanks, human-mouse chimeric sites, ends assumed
Baseline: input RNA pool
Direction: higher = stronger binding
Shared flanks, not repeated: GGGAGUUCUACAGUCCGACGAUC … CAACAGAGGAUUGAGCAUCA
Sequence	bound/input enrichment [ratio]
UCUUUAAAUGCACUACAACAGGAAAAUACAGUGCUUUCCCUCCCAUAGAUCCACGUUCAAGCUCAAAGAGCAAAGGCUUUGCACGGAGCUCAAACAUCUGAUGAAGAAAGAUUUCUGAGA	0.419
GAAAGAGAACUAAAGCAAACUGAUUGAAAGAGGAUUGGCAAAGAGAAUUUCAUAGAGAAACUAGGAUUUAUUAGCAAACAUGAGUUAUAUUCCAGAGCGUCUCAGAAACCCCAGCCAAAC	3.3
CUGGCCUGGCCCUCCCCUCUAGUGACCUUUCGUAUAGUCACUGCUUCUGCUACGGAUACUUUCAGCUGCAACUCCCUACUGGGUGGGGCACCCAUUUCAGGCAGAAGGUUUUGGUACCCU	0.253
ACACAAUAUGAGACCAACAGCAUGGACUUCAAAGUUGGGGCGGAUGGGACAGUCUUCGCCACCCGGGAGCUGCAGGUCCCCUCCGAGCAGGUGGCGUUUACCGUCACUGCAUGGGACAGC	0.186
AAAGCCCAAGUAUUUUGAAAAAACUCGAACAGAUUUAACAAGGGUAGCCAGCUUGGAGUCUAGCAAUUUGCCAAUGUGUUUACCAAUCUGGGGGCUUGUUUUUCUUUUCUUCUUUCAAAU	0.354
GGAAGCACAAUGAUGGAGAUUGAUGGUGACAAAGGCAAGCAGGGCGGGCCCACCUACUACAUAGAUACCAAUGCCCUCCGCGUGCCCAGGGAGAACAUGGAGGCCAUCUCACCACUCAAG	0.288
UCCUUGGACCCCAGUCAUAUAGGUGACCUGCAGAAAGCAGACACCAGUAGUCAAGGUGCUUUAGUGUUUCUCUCAAAGGACUACGAAAUAGAAAAUCAAAAUCCCCUGGCCUCUCCUACG	2.37
CAGCCUCAGAGCCCAGACUUCCUGGACAUUACCAACCCUAAAGCGGUAUUAGAAAAUGCAUUGAGAAACUUUGCCUGUCUGACGACUGGAGAUGUGAUUGCUAUCAACUACAAUGAGAAG	0.469

Set 2
Target: Hepatocyte nuclear factor 3-alpha (Foxa1, Mus musculus, UniProt P35582, residues 1-468, full length assumed)
Chain of UniProt P35582 (whole entry, looked up): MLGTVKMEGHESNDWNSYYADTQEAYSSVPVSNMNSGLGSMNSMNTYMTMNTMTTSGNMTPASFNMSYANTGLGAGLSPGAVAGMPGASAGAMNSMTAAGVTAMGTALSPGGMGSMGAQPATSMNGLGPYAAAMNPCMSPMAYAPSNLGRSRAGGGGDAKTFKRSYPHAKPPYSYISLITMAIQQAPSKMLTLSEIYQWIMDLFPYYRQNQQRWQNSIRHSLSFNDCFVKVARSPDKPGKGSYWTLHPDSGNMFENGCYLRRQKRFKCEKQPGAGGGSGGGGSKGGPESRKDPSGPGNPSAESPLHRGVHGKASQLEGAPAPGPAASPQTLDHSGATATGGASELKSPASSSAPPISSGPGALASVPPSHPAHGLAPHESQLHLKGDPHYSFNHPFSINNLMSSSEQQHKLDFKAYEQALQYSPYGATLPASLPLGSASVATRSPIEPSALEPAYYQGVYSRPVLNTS
Method: EMSA with sequencing
Molecule type: double-stranded DNA, one strand shown
Matrix: in vitro
Concentration: 10 and 20 nM
Setting: whole designed probe, mean of two concentrations, ends assumed
Baseline: negative control set to 0
Direction: higher = stronger binding
Shared flanks, not repeated: GTGAGCGGTGCCCATTGATGGGGAAC … TTTCACTGGGATCGTGGGGAC
Sequence	normalised bound fraction [ratio]
TTTTAACTAGTATGTTTTAAACTTTGGTATTGTATTTCCCACTAAGAGCCCTTCTTTTTTCAAAATAATATTTATTCTACCAGATGAACTATGTAAACATAAAGCAATATGGACAAGCATTTATTCTTTTGTTTTTAATTAACTTGCCCACATGATTTCAAATTTCATTAGAATTTATATTATAGTATTTCAA	0.466
CACTAGCCAAGCAAATGCTACCTTTCCTAAATTACGCCGTGGTATTGTGTACGACAGCAGCAGGGTTGCTATTTTAAAATGGGATTGCGTAAAATAAACATGTGCCCAGATGCTAAACAGGAAGTAGTTGATGATTAATTGATGCTCTGGTACGGCCTCGTGCTTTCCAGTGCTTCCATTTGTGTGACGATCC	0.24
ACAGGATATGTTCAGTGAGTAAGGGCTGCTGTTGTTAATAGAAGCCACCTTTGGATCCCCAGTACCTAACAGTACTTGAATGTATATACGTGCATGTTTACATTAAGTGTATCTGTCTATACCTAGGCCTGTGTCCACGTCCATATCCATATCTATCGTTTTGCATCTAGCAAGTTTTTTGAAAGAGGGACTA	0.353
ACAAAGTGCTCCAAATGTCCAGTTCCACATACTACAAAATCAGTGTTTGAAACCTGCTCTATGAAAGTGAATGTTCAACTCTGTGTCTTGAATGCAAACATCCCAAAGAAGTTTCTGATAATGCTTCTGTCTAGATTTTATATGAAGATATTCCCGTTTCCAGCGAAATCCACCAAGCTATCCAAATATCCAC	0.0985
TAAGACACCTTAGATAGGTTTTTTAGAGTTTAGTTTTGAAATATTTTGATAGCTAAACTTTCTTTTTCCAAATGAAATCATAGATGGGCACAATGTAAACAAAAATAATACAGCTCAGTATTAAGCAGAAAGTCCTTCATTGCTTGTGAAACCTGGAAATCAATTATTTCACACCCTTATGATTCTTAGAGAC	0.453

Set 3
Target: Eukaryotic initiation factor 4A-I (EIF4A1, Homo sapiens, UniProt P60842, residues 1-406, full length assumed)
Chain of UniProt P60842 (whole entry, looked up): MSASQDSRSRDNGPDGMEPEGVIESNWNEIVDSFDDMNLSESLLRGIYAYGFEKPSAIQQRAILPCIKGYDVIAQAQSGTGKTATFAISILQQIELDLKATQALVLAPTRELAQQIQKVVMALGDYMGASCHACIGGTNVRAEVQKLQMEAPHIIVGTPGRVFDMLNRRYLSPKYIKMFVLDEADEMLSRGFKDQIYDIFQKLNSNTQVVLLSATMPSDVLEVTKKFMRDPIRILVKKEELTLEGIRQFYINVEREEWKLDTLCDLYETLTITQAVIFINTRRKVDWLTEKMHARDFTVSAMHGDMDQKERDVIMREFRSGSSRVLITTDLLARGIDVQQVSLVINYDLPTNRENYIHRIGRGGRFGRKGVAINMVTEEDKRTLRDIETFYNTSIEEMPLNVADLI
Method: RNA Bind-n-Seq
Molecule type: RNA
Matrix: in vitro
Concentration: 15 pmol
Setting: 4-mer, random 30-nt RNA, single round
With: 3 µM RocA, 2 mM AMP-PNP
Baseline: mean of 4-mers
Direction: higher = stronger binding
Sequence	4-mer enrichment Z-score
CCAU	-1.37
ACAU	-1.15
UGGA	1.33
UACG	-0.334
UGGU	0.958
UGUU	0.544
CCUC	-1.42
CACC	-1.4

Mixed results
SMILES	target	effect on	method	concentration	quantity	result
C[C@@H](c1cccc(C#N)c1)n1cc(Cl)cc(C(N)=O)c1=N	Serine/threonine-protein kinase WNK3 (WNK3, Homo sapiens, UniProt Q9BYP7)	cell-free assay	competition with immobilised ligand	1 µM	remaining binding	82%

A few entries again (mixed results):
SMILES	target	effect on	method	concentration	quantity	result
C[C@@H](c1cccc(C#N)c1)n1cc(Cl)cc(C(N)=O)c1=N	Serine/threonine-protein kinase WNK3 (WNK3, Homo sapiens, UniProt Q9BYP7)	cell-free assay	competition with immobilised ligand	1 µM	remaining binding	82%
